Published values collected from several papers.
Parts stem from different laboratories: compare values within a part only. Positions count from the first letter of the parent shown.

Series 1
Target: PABPC1L2, full length, GST fusion (mouse, UniProt A0ABA7IW68)
Method: RNAcompete
Molecule type: RNA
Sample: in vitro
Tested at: 20 nM
Setting: 7-mer, probes averaged, single round
Reference: mean of 7-mers
Direction: higher = stronger binding
Construct (chain): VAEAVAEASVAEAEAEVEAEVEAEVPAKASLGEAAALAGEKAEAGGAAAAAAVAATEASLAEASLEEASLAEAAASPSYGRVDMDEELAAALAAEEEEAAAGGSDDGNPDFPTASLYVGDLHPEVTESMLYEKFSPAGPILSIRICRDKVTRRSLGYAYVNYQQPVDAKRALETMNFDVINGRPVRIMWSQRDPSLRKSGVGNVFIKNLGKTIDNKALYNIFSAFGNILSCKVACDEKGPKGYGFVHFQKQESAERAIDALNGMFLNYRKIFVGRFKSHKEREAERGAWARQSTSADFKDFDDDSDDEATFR
Strand | 7-mer Z-score
CUAUCAC | -0.204
GUCUAUU | -0.353
UCGAUAU | -0.278
GAUCGCU | -0.168
CCACCGG | -0.153
GCUUCCC | -0.407
AGCUGGA | 0.037
AGAUCCG | -0.293

Series 2
Change: L91V
Target: ABI1, truncated, D143A, DHFR fusion (Arabidopsis thaliana)
Method: DHFR PCA, deep sequencing
Sample: yeast
Setting: methotrexate growth selection, single substitutions
Reference: wild-type fitted maximum
Direction: higher = stronger binding
Parent: PYL1, truncated, DHFR fusion (Arabidopsis thaliana); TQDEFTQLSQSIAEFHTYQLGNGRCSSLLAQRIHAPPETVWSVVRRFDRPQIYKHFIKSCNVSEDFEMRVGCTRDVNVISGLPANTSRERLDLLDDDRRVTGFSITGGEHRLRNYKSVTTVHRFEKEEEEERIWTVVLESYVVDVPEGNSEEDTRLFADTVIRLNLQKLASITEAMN
together with | relative binding score [%]
(+)-ABA 17 µM | -10.5
(+)-ABA 1.4 µM | -1.62
(+)-ABA 0.11 µM | -5.47
(+)-ABA 710 µM | 44.3
(+)-ABA 58 µM | -2.49
(+)-ABA 200 µM | 19.6

Mixed results
P1: PafA, mature enzyme, eGFP fusion (Elizabethkingia meningoseptica, UniProt Q9KJX5); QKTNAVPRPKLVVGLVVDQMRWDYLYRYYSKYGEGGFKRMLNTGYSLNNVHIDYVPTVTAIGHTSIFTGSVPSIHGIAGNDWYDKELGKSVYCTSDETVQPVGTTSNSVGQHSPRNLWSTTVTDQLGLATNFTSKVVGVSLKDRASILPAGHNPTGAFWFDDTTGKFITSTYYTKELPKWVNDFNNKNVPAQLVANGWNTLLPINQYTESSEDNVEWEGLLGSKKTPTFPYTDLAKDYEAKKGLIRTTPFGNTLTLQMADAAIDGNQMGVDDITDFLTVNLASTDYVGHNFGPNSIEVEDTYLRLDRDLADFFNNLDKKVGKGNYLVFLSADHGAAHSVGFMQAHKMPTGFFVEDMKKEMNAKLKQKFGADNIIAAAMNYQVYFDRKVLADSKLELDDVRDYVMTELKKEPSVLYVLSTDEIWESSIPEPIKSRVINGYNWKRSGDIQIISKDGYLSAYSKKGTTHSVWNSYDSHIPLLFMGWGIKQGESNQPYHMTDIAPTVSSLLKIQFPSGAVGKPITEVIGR
Molecule | target or system | assay | test system | setting | scale | measurement | value
SF3A1 (Homo sapiens, UniProt Q15459) | PRPF31 (Homo sapiens, UniProt Q8WWY3) | cross-linking MS | cell fractions | together with: DSSO | – | cross-linked residues | K449 to K341
P1 T105G | tungstate, free oxyanion | microfluidic competitive inhibition | in vitro, cell-free expressed | not given, derived from inhibition constants, unchanged parent 2230 nM | lower = stronger binding | oxyanion analog dissociation constant | 1.89 µM
NDUFA8 (Homo sapiens, UniProt P51970) | NDUFA13 (Homo sapiens, UniProt Q9P0J0) | cross-linking MS | cell fractions | together with: DSSO | – | cross-linked residues | T9 to K105
SF3B1 (Homo sapiens, UniProt O75533) | GIMAP8 (Homo sapiens, UniProt Q8ND71) | cross-linking MS | cell fractions | together with: DSSO | – | cross-linked residues | K562 to K655
NPBWR2 (Homo sapiens, UniProt P48146) | ANK3 (Homo sapiens, UniProt Q12955) | cross-linking MS | cell fractions | together with: DMTMM | – | cross-linked residues | K249 to D2575

For quick reference, copied from above (series 1):
Strand | 7-mer Z-score
CCACCGG | -0.153
GCUUCCC | -0.407
